Published values collected from several papers.
Parts stem from different laboratories: compare values within a part only.

Set 1 — technique: competition protein-binding microarray; molecule type: double-stranded DNA, one strand shown; matrix: in vitro; tested at: 2 µM; added: Cbf1 competitor, 0.05 µM; direction: higher = stronger binding; endpoint: fluorescence intensity; all sequences stand within: … GTCTTGATTCGCTTGACGCTGCTG
Target: Phosphate system positive regulatory protein PHO4, full length, GST-tagged (PHO4, Saccharomyces cerevisiae, UniProt P07270, residues 1-312)
Notes: whole 60-bp probe, lowest competitor level
Target sequence (chain): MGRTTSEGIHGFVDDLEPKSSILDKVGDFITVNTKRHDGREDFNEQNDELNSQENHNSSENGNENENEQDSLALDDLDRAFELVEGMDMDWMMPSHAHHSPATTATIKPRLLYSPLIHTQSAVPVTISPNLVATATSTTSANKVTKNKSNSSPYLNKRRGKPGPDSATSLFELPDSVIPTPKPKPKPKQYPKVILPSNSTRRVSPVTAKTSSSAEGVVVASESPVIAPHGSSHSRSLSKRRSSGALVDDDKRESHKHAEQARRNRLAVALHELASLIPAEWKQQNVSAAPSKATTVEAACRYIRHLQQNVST
CTTTGTTTTTAACATCACATGTTGTTTCCATCAGAA: 9010 a.u.
CTAACGAAGGTTTGTGCTGTGGGTGACAAGCCAAGT: 4830 a.u.
GTTGGGCCACCGGGACCCATGTCTGCGTCCGCGATA: 3620 a.u.
ACAATAGGGTTTCGTCACGTAATAAGCAACGTACAG: 5460 a.u.
GTATGCCTAAGGAAGCATGTGACAGGTATGCCCACT: 10400 a.u.
AAAGCGGTAATTTGTATTGTGGGTGCAGATATCTAT: 4290 a.u.
CTCAACATGGCAGAAGATGTGACGAATCTTATGCTT: 4830 a.u.
AAATTACTAAGTTGACGGGTGGGTGACGCCGTATGA: 5100 a.u.

Set 2 — technique: Sort-seq; measured: YFP reporter; matrix: E. coli; notes: PhoQ-PhoP variant library; added: 10 µM Mg2+; baseline: high Mg2+ state; direction: higher = stronger signaling; endpoint: fold induction
Substance: PhoQ, residues 284 288 289 292 302 303 AAQSYM
PhoP, residues 12 14 15 18 19 VHTVL (Escherichia coli, UniProt P23836): 17
PhoP, residues 12 14 15 18 19 ICWRQ (Escherichia coli, UniProt P23836): 1.34
PhoP, residues 12 14 15 18 19 TQCLL (Escherichia coli, UniProt P23836): 5.06

Set 3 — technique: universal PBM; molecule type: double-stranded DNA, one strand shown; matrix: in vitro; tested at: 600 nM; direction: higher = stronger binding; endpoint: E-score
Target: Sal-like protein 4, full length isoform A (SALL4, Homo sapiens, UniProt Q9UJQ4, residues 1-1053)
UniProt Q9UJQ4, sequence (whole entry, looked up): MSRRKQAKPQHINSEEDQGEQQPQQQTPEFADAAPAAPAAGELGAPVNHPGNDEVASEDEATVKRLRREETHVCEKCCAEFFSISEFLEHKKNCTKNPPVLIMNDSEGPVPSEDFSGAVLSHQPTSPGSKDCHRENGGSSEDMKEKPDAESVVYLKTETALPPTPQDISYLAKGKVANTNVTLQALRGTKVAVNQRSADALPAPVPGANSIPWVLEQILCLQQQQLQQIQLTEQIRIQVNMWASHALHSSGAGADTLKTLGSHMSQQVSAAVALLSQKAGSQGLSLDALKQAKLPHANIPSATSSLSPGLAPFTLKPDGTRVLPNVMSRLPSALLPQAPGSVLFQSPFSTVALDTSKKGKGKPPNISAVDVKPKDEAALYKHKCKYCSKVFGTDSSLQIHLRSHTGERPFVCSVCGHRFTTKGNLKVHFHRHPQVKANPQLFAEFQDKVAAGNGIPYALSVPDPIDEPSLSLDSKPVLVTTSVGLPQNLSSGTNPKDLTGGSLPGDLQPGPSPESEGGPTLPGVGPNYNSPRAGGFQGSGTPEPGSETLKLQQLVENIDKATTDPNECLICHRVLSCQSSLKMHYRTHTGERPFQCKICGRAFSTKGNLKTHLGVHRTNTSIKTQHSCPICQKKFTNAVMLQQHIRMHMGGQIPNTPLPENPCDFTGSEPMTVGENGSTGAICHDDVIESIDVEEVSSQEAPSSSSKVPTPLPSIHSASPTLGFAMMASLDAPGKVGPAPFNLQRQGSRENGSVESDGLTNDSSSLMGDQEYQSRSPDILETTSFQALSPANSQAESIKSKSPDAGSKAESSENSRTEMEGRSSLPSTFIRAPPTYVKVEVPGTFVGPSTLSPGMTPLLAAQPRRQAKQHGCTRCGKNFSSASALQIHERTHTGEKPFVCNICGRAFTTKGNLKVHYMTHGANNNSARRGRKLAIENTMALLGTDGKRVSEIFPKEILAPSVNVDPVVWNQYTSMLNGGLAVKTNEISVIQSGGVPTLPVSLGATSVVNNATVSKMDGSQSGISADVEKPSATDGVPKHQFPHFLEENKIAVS
Notes: 8-mer, flanks averaged, mean of replicates
GGCGAATA: 0.0571
CTACTTGA: -0.0337
AATGGTTG: 0.0423
CATAACAC: 0.302
CAATCGGG: -0.243
GTAATCGA: 0.069
ATAATTTG: 0.39
AGGCGCGC: -0.173
AACGCCAT: -0.129

Set 4 — technique: RNA Bind-n-Seq; molecule type: RNA; matrix: in vitro; tested at: 365 nM; baseline: no-protein control; direction: higher = stronger binding; endpoint: RBNS enrichment (R)
Target: RNA binding protein fox-1 homolog 2, RRM domain, GST-SBP tag (RBFOX2, Homo sapiens, UniProt O43251-10, residues 100-194)
Notes: natural RNA segment, single round, ends assumed
All sequences stand within: GGGAGUUCUACAGUCCGACGAUC … UGGAAUUCUCGGGUGCCAA
Construct (chain): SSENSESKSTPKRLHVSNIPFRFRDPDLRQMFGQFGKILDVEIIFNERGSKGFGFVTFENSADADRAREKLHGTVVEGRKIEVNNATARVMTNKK
AAAAAUACUUGAAAAUUGUAUGAUGUAUGAGAAGACAGAGCCCCCUAGUUUUGUAUUUUGUCCUGUGACUGCCAUGCGUUCCACCAGAAAGCCGCUCUAUUUUGGUCUCU: 1.13
AACUCACCAGCAGGUGUGCAGUAGGCAAGCUUGAAGGUGGCCCAUGCUUCUCUGUUGUCACACAACACCUUUCCCUGUUUCUCUUCAGUUGUCCUCUGAUAUUUUCACAG: 0.249
UAACUUGGCAAACUUUCUAUUGCCUGUCCCAUGUGCAUCUUAUUUAAAAUUUCCCCCAUGGAAAUCACUCUCCUGUUGACUAUUUCCAGAGCUCUAGGUGUUUAGGCAGC: 1.68
CUUCAAAAUAUUGAACUGCAGGUCCCAAGAUGCAUUUCAGGAUUUAAGACAGGUGCACUAAUGAUAACCAUUCCUUCACCAAGUAGCAACAUUCUUGCCAGAGUUCUUGG: 1.84
AAUUGCACAAAGUGUAGGUAUUCAUGUUAAUGGAUAUUUAAGCACAGUCCUAGAAGGUAUGUUUUAAGAAUACUGUGUAGUACACAUUAUUGCAACAUACACCUGAGAUU: 0.28
UAACCCUGGAUCCAUCUCUAAGUAGAGAGAGGGUGCCCAUUGCCUAGGUGAGUGUGCCAAGCUCAGGAUUCCAACUGGUGCCUCUGAGCUUCCCAAUCAAUACUUCCUGG: 0.263
